# Experimental data from different studies.
# Each line is one published result; not all experiments were run side by side. “And” joins repeats or separate records; there may be more than shown. ± gives the spread as reported.
Structure (SMILES),cell line,assay,system,conditions,scale,quantity,value
Nc1ncnc2c1ncn2[C@@H]1O[C@H](CO)[C@@H](O)[C@@H]1O,human iPSC-derived cardiomyocytes,"MyBP-C/MYH ratio, plate-normalised SD score",,"concentration not given, primary screen",direction not given,activity score,-3.4
C=Cc1c2[n-]c(c1C)/C=c1\[n-]/c(c(C)c1C=C)=C\c1[n-]c(c(CCC(=O)O)c1C)/C=c1\[n-]c(c(C)c1CCC(=O)O)=C2.[Sn+4],SH-SY5Y,"RNA-seq, item: ERRFI1 mRNA",,"5 µM, 5 h",baseline: untreated cells,fold change,2.12
Cn1cc(Nc2nccc(-c3ccc4c(c3)CN(C3COC3)CC[C@H]4NC(=O)c3cn(C(C)(C)C)nn3)n2)cn1,mouse splenic B cells,item: Integrin signalling,,"30 mg/kg, IgD-activated in vivo","baseline: vehicle, direction not given",pathway activation z-score,3.27
c1ccc2[nH]ccc2c1,HCT-8,"RNA-seq, item: NAV3",,concentration not given,,"mRNA level, LS mean",0.9 counts per million
CC/C(=N\NC(=O)NCc1cccc(O)c1)c1ccc(O)c(C)c1O,SK-OV-3,"gene expression, microarray, item: GDF15",,"10 µM, 24 h",baseline: DMSO,log ratio,-2.87
CCCCN1CCN(c2ccc3[nH]c(-c4ccc5[nH]c(-c6cc(OC)c(OC)c(OC)c6)nc5c4)nc3c2)CC1,M14,SRB,,"10 µM, 48 h",,growth percent,59%
CNc1ncnc2c1c(-c1ccc3cc(OC4CC4)ccc3c1)nn2CC(C)(C)O,LNCaP and LNCaP-95,"glycolysis, Seahorse",,"20 µM, 1 h",,extracellular acidification rate,inhibited
Cn1cc(-c2ccc(-c3cncc(Cl)c3N3CCC4(CCNC4=O)CC3)cc2)cn1,COLO 205,"gene expression, microarray, item: PLD1 mRNA",,"concentration not given, 2 h",baseline: untreated cells,log2 fold change,2.16
Clc1nc(NCc2ccco2)c2[nH]cnc2n1,FD iPSC-derived cardiomyocytes,"alternative splicing, RNA-seq, item: GLA exon chrX(-):101399743-101399800",,unit not given,baseline: DMSO minus compound,ΔPSI,-0.268
CCn1cc(-c2cc(Cn3ccnc3)cc3c2CCN([C@H](c2cc(OC)ccn2)C2CC2)C3=O)c(C(F)(F)F)n1,HT,cell growth,,120 h,,EC50,25.5 nM
O=C(/C=C/C=C/C=C/C1CCCCC1)NC1=C[C@@](O)(/C=C/C=C/C=C/C(=O)NC2=C(O)CCC2=O)[C@@H]2O[C@@H]2C1=O,NCI-H650,"cell growth, CellTiter-Glo",,78 h,,GI50,15200 nM
CS(=O)(=O)c1ccc([C@@H](O)[C@@H](CF)NC(=O)C(Cl)Cl)cc1,human iPSC-derived cardiomyocytes,"MyBP-C/MYH ratio, plate-normalised SD score",,"concentration not given, primary screen",direction not given,activity score,-3.5
Cc1cc(Nc2ncc(Cl)c(Nc3ccccc3S(=O)(=O)C(C)C)n2)c(OC(C)C)cc1C1CCNCC1,CLB-GE,"phosphoproteomics LC-MS/MS, item: SLC35B3 phosphorylation",,"200 nM, 60 min",baseline: untreated,log2 fold change,-1.51
CCc1cnc(N2CCC(c3nc(COc4ccc(-n5cnnn5)cc4)cs3)CC2)nc1,HEK-293T,"RNA-seq GSEA, item: HALLMARK_TGF_BETA_SIGNALING",,concentration not given,direction not given,normalized enrichment score,0.872
NCCOc1cc(C(=O)Nc2cc(OCCN3CCCC3)c3ccccc3n2)nc(C(=O)Nc2cc(OCCN3CCCC3)c3ccccc3n2)c1,U2OS,"cell viability, CellTiter-Glo",,72 h,baseline: IC50 U2OS over WI-38,selectivity ratio,2.6
CCn1cc(-c2cc(Cn3ccoc3=N)cc3c2CCN([C@@H](C)c2cc(OC)ccn2)C3=O)c(C(F)(F)F)n1,NCI-H838,"cell growth, inhibitor",,120 h,,EC50,126 nM
Br.N=c1n(CC(=O)c2ccc([N+](=O)[O-])cc2)c2ccccc2n1Cc1ccccc1Cl,C127 LDR GFP reporter cells,"silenced GFP reporter induction, activator, high-content imaging",,"retest, two-run mean",,efficacy,42%
O=C(Nc1nnc2n3c(nc(-c4ccc(Cl)cc4)c1-2)SCC3=O)c1ccccc1,NCI60 cell panel,SRB,,10 µM,,mean growth percent,97.4%
Clc1ccc(C2(c3ccc(-c4cn[nH]c4)cc3)CCNCC2)cc1,primary CLL cells,flow cytometry,human,"10 µM, 24 h","baseline: DMSO, higher = more protein",Mcl-1 MFI,1160 a.u.
O=C(CCCSc1nc2ccccc2c(=O)[nH]1)Nc1ccccc1,"cells, COS-1, expressing proMMP-9","cell migration, 2D collagen dot migration",,"50 µM, 18 h",,inhibition,64 ± 4%
CCOC(=O)c1ccc(NC2CCCCC2)c(N)c1,BJeLR,"protection from ferroptosis, PrestoBlue",,"24 h, added: erastin 10 µM",,EC50,76 nM
Nc1cccc2c1C(=O)N(C1CCC(=O)NC1=O)C2=O (stereo not shown),MM1.S,XTT,,1.8 µM,baseline: untreated,viability,22%
O=c1cc(-c2ccccc2)oc2cc(O)cc(O)c12,human iPSC-derived cardiomyocytes,"MyBP-C/MYH ratio, plate-normalised SD score",,"concentration not given, primary screen",direction not given,activity score,3.2
COc1cc(N2CCC(N3CCN(C)CC3)CC2)ccc1Nc1ncc(Cl)c(Nc2ccccc2P(C)(C)=O)n1,NCI-H1975 (EGFR L858R/T790M),"cell growth, CellTiter-Glo",,72 h,,GI50,890 nM
CCCCN1C[C@H](O)[C@@H](O)[C@@H](O)[C@H]1CO,sample G patient fibroblasts,"Gb3 level lowering, LC-MS/MS, item: Gb3 d18:1/24:0",,216 h,,IC50,23000 nM
CC(=O)c1nn(-c2ccc(Cl)cc2)/c(=N/N=C(\C)c2ccc(NC(=O)c3ccc(C)cc3)cc2)s1,HepG2,,,0.312 µM,,toxicity,72.9%
O=C(Nc1nnc2n3c(=S)[nH][nH]c3nc(-c3ccc(Cl)cc3)c1-2)c1ccccc1,NCI60 cell panel,SRB,,10 µM,,mean growth percent,94.9%
CCCCC(CC)COC(=O)c1ccccc1O (stereo not shown),human iPSC-derived cardiomyocytes,"MyBP-C/MYH ratio, plate-normalised SD score",,"concentration not given, primary screen",direction not given,activity score,4.4
COc1cnc2cccc(N3CCc4c(cc(Cn5ccnc5C)cc4-c4cn(C)nc4C(F)(F)F)C3=O)c2c1,KYM1,cell growth,,120 h,,EC50,4220 nM
CCCCCCCC/C=C/CCCCCCCCOP(=O)([O-])OCC[N+](C)(C)C,human iPSC-derived cardiomyocytes,"MyBP-C/MYH ratio, plate-normalised SD score",,"concentration not given, primary screen",direction not given,activity score,16.8
Nc1ncnc2c1ncn2[C@@H]1O[C@H](CO)[C@@H](O)[C@H]1O,activated human T cells,,,"10 µM, 72 h",higher = more viable cells,viability,79.4 a.u. and 80.5 a.u. and 74.6 a.u.
CC(=O)N(c1onc(C)c1C)S(=O)(=O)c1ccc(N)cc1,human iPSC-derived cardiomyocytes,"MyBP-C/MYH ratio, plate-normalised SD score",,"concentration not given, primary screen",direction not given,activity score,3.2
O=C(Cn1c(=O)n(Cc2ccc(F)cc2)c(=O)c2sc3ccccc3c21)Nc1ccc(F)cc1F,C127 LDR GFP reporter cells,"silenced GFP reporter induction, activator, high-content imaging",,"independent samples, two-run mean",,maximum efficacy,43%
CN(C)CCOc1ccc(/C(=C(/CCCl)c2ccccc2)c2ccccc2)cc1,human iPSC-derived cardiomyocytes,"MyBP-C/MYH ratio, plate-normalised SD score",,"concentration not given, primary screen",direction not given,activity score,17.1
NCCCOc1cc(NC(=O)c2cc(OCCN)cc(C(=O)Nc3cc(OCCCN)c4ccccc4n3)n2)nc2ccccc12,U2OS,"cell viability, CellTiter-Glo",,72 h,baseline: IC50 U2OS over WI-38,selectivity ratio,0.8
CCn1cc(C(=O)O)c(=O)c2cnc(N3CCNCC3)nc21,human iPSC-derived cardiomyocytes,"MyBP-C/MYH ratio, plate-normalised SD score",,"concentration not given, primary screen",direction not given,activity score,3.1
C=C1C(=O)O[C@@H]2[C@H]3O[C@]3(C)CC/C=C(/C)CC[C@@H]12,C127 LDR GFP reporter cells,"silenced GFP reporter induction, activator, high-content imaging",,"retest, two-run mean",,efficacy,58%

# For quick reference, copied from above:
Structure (SMILES),cell line,assay,system,conditions,scale,quantity,value
c1ccc2[nH]ccc2c1,HCT-8,"RNA-seq, item: NAV3",,concentration not given,,"mRNA level, LS mean",0.9 counts per million
CC/C(=N\NC(=O)NCc1cccc(O)c1)c1ccc(O)c(C)c1O,SK-OV-3,"gene expression, microarray, item: GDF15",,"10 µM, 24 h",baseline: DMSO,log ratio,-2.87
CCCCN1CCN(c2ccc3[nH]c(-c4ccc5[nH]c(-c6cc(OC)c(OC)c(OC)c6)nc5c4)nc3c2)CC1,M14,SRB,,"10 µM, 48 h",,growth percent,59%
CNc1ncnc2c1c(-c1ccc3cc(OC4CC4)ccc3c1)nn2CC(C)(C)O,LNCaP and LNCaP-95,"glycolysis, Seahorse",,"20 µM, 1 h",,extracellular acidification rate,inhibited
